# Results pooled from the literature.
# A part holds a random share of what one study measured. Changes are numbered by the printed parent chain.

# Set 1 — target: CCNE2, cyclin fold, Cln2 fusion (human); method: yeast growth competition, sequencing; sample: yeast; setting: weak parent motif; reference: not given; direction: higher = stronger binding
# Starting sequence: CABLES2 docking peptide (human); ICAKRSLCAAFSV; partner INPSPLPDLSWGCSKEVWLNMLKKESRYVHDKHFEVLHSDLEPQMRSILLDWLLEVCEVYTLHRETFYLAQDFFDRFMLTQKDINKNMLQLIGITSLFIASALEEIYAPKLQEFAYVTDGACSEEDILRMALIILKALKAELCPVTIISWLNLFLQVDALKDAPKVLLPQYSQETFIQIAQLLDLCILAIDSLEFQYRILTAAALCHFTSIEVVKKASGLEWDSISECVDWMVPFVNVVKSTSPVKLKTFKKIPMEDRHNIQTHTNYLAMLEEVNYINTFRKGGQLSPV
Change,normalised enrichment score
ICAKRALCAAFSV [S6A],0.867
ICAKRSLCAAASV [F11A],0.217
IAAKRSLCAAFSV [C2A],-0.0705
ICAKRSLAAAFSV [C8A],0.499
ICAKASLCAAFSV [R5A],0.139

# Set 2 — method: DHFR PCA, deep sequencing; sample: yeast; with: (+)-ABA 2500 µM; reference: wild-type fitted maximum; direction: higher = stronger binding
# Target: ABI1, truncated, D143A, DHFR fusion (Arabidopsis thaliana)
# Setting: methotrexate growth selection, single substitutions
# Starting sequence: PYL1, truncated, DHFR fusion (Arabidopsis thaliana); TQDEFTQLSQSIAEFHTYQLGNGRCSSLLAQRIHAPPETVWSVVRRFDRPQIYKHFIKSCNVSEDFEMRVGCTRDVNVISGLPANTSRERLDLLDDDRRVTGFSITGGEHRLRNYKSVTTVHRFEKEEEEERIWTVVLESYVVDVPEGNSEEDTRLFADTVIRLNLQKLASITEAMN; partner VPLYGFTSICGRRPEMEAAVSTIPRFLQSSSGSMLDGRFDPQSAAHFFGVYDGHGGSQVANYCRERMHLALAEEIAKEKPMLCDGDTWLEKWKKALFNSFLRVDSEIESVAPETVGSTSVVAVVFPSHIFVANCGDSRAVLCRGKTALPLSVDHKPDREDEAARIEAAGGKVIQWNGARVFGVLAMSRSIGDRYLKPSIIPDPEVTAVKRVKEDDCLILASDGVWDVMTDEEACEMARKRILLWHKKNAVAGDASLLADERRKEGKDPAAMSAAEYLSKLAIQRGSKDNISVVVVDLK
Change,relative binding score
S63M,87.3%
I79A,99.1%
V121L,102%
D65L,92.8%
T17R,99.8%
V44G,8.24%
E128A,101%
L8N,87.5%
R99C,93.3%
D95F,66.1%
E151C,96.7%
D96L,79.4%
T1D,89.4%
P50C,83.4%

# Set 3 — method: universal PBM; molecule type: double-stranded DNA, one strand shown; sample: in vitro; concentration: not given; direction: higher = stronger binding
# Target: Sal-like protein 4, full length isoform B (SALL4, Homo sapiens, UniProt Q9UJQ4-2, residues 1-616)
# Setting: 8-mer, flanks averaged, mean of replicates
# Target sequence (chain): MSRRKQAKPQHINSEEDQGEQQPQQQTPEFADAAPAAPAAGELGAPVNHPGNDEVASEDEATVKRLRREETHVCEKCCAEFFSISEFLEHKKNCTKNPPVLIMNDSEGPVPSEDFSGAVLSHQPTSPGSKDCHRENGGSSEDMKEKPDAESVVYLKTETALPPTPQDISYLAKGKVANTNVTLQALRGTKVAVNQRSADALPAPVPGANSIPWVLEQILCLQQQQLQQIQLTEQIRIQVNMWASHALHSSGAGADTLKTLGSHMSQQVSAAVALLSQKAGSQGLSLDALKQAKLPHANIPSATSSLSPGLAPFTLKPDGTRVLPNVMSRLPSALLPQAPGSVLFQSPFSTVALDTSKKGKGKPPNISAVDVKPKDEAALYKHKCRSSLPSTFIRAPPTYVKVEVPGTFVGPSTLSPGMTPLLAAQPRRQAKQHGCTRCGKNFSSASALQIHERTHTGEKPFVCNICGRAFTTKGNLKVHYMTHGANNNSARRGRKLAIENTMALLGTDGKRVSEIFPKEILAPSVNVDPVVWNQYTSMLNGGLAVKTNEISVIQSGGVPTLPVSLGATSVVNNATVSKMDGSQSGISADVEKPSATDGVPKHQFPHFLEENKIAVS
Sequence,E-score
TAAGCAAA,0.17
TAGAAATA,0.343
TAGTCTCA,0.162
CCTAGAGA,-0.13
GCCCATCC,-0.128
CCAACATC,-0.226
CGCCAGCG,-0.243
ACACCCTC,-0.0161
GCAGGACA,-0.148
CAACCTAC,0.00074
CCAGCTCC,-0.283
AGGTGCGG,-0.184
GCGGGCCC,-0.301
ACTAAGCT,-0.00929
GACGCTTA,-0.0745
ACGAAAAA,0.272
AATAAAAT,0.431
AGAGCCGC,-0.303
GACTATAC,0.099
AATGGTGA,0.107
ACGAAGTC,-0.0271
AAATAATA,0.412
AATGAACG,0.178
CTGCGAAA,-0.0163

# Set 4 — method: RNA Bind-n-Seq; molecule type: RNA; sample: in vitro; concentration: not given; reference: input RNA pool; direction: higher = stronger binding
# Target: RING finger protein unkempt homolog, zinc fingers 1-6, GST-SBP tag (UNK, Homo sapiens, UniProt Q9C0B0, residues 30-357)
# Chain of UniProt Q9C0B0 (30-357, looked up): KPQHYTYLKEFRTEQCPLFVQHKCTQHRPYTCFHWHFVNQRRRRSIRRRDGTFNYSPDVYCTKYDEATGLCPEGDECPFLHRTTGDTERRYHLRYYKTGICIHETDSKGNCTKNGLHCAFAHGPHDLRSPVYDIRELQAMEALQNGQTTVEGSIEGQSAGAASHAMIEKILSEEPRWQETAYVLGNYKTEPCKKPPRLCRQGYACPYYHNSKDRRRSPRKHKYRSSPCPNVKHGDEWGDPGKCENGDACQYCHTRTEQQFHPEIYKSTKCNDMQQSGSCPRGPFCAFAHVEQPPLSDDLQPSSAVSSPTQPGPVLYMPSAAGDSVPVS
# Setting: RNA with constant flanks, human-mouse chimeric sites, ends assumed
# Shared flanks, not repeated: GGGAGUUCUACAGUCCGACGAUC … CAACAGAGGAUUGAGCAUCA
Sequence,bound/input enrichment
GAAUCCUACUCAGGCGGAUUUUGCAACACCAAGCUCACAGCAGCAGCAUCUUAGUCACAGUUAGGUAGUUUUGGGGCUCUGUGGCCAGGGUUUUAUUCACAUGCAGGUUUUGAAAAUGUA,2.64 ratio
UCUGGUCAUACUCGUGCGUAUGGUGUUUGCUUUGUGGACACUUCACUGGGCAAGUUUUUCAUAGGUCAGUUUUCGGAUGACCGCCACUGUUCCAGAUUUAGGACGCUAGUGGCUCACUAU,0.223 ratio
CAGCUGCAGACAGAAAAGGAUGAGAAGGAGCUGUAUAAGGUACAUUUGAAGAAUACAGAAAUAGAAAAUACCAAGCUUGUGUCAGAGAUACAGACUUUAAAAAAUUUAGAUGGAAACAAA,6.6 ratio
GCAAAGGAUGAUGAGGCGGCAGCUGUUGCCCUUUCCUCUCUCGUUCAUGCUUUGGAUGACUUAGACAUGGUCGCCAUCGUCCGAUAUGCUUAUGACAAAAGAUCUAAUCCUCAAGUCGGU,0.32 ratio
CUGAGGAUACCACUGAAGAGACCUUAAAAGAAUCAUUUGAGGGCUCUCGUUCGGGCAGAAUAGUCACUGAUCGGGAAACUGGUUCUUUCCAAAGGGUUGGUUUUGUAGACUUUAAUAGUG,0.876 ratio
AAAGUGAUGACUAUGUUUGUCCAACGACAGGUGUUUGCGGAGAGCAAAGAUGAGAUUGCGUUAGUCCUCUAUGGCACAGAUGGCACUGAUAAUGCCCUUGCUGGCAAGGACCAGUAUCAG,0.176 ratio
UUAUCCAAGACUCAACGAAAGACUCCAACCGUUAUUCAUAAACAUUACCAAAUACAUCGGAUUCGACAUUUUUAUAUGAGAAAAGUCAAAUUUACUCAACAGAAUUACCAUGACAGACUG,0.464 ratio
UCUGGUCACACUCGUGUAUAUGGUGUGUGCUUUGUGGAUACUUCACUGGGCAAGUUUUUCAUCGGCCAGUUUUCGGAUGACCGCCACUGUUCCAGAUUUAGGACGCUAGUGGCUCACUAU,0.228 ratio
GUAUACGGUUAUCGAGGAAAGGACUGUAGAGCUAAUGUAUACCUGCUUCCCACAGGGGAGAUAGUUUAUUUUAUCGCAUCAGUAGUAGUCCUGUUUAAUUAUGAGGAGAGGACUCAGCGA,2.49 ratio
UUAAUCCCCUUUACUGCUCCACCACUGCUCAUGGUAAUAACAAAGUCUUAUAUCCCCGUCCUAGCUUUCACUCAGAUGGCUUAUGGAGCCAGUUUCCUAGCUUUCUUGGGAGGGAUCAGA,0.247 ratio
CCCUCCCCGGGCCACCCACCCCUCCCGCUCCCAGCGGAGAGCAAGGUUUUCUUCUUAUUUCAUAGCAAAUAAGAAAAAUGUUCUACGCACAUUUUGUCCUCAGUAAACGAGGGCCUCUGG,0.261 ratio

# Set 5 — method: RNA Bind-n-Seq; molecule type: RNA; sample: in vitro; concentration: 365 nM; reference: no-protein control; direction: higher = stronger binding
# Target: RNA binding protein fox-1 homolog 2, RRM domain, GST-SBP tag (RBFOX2, Homo sapiens, UniProt O43251-10, residues 100-194)
# Setting: natural RNA segment, single round, ends assumed
# Shared flanks, not repeated: GGGAGUUCUACAGUCCGACGAUC … UGGAAUUCUCGGGUGCCAA
# Residues (chain): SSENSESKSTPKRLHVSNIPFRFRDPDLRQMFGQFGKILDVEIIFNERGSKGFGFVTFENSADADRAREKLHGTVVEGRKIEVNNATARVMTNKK
Sequence,RBNS enrichment (R)
CAACCUCCUUCUUAUCUGUGAUAAAUCUAUAGAAAGAAUUUAGCUGCAAGUGGACAAAGGAACAAGCCCCCAGAAAAGAAAGGGAAGAACUGCCUUCUUAUACUACAGAA,0.752
UUUAUUUAUUCAGUCUGGGUUGUAGAACUUUGCAAUCUAAGUUUAUUUUUUGUAAACUAAUAAUUCAUUUGGUGCUGGUCUAUUGAUUGGGGGCCUACUUCUUCAUGGAA,0.593
GUUAGUAAUGUACACCUCUGAUGGGACUCCAAAGGGUGGUCCUUCACUUAGGUGUAGAGCCCCACAGAUGGACAUGUGAGGGAAUUCUUGGGGUGACAUAAACUAGAUAA,0.735
CAAGUUCGGAUGCGGGAACCUGGUCCCAGCUUGAGUUCCUGCCUUUCCCACCACAAAUUAUCAACUGGUUGAUGUGUACACUAAUUACAUUUCAGGAGGACUUAAUGCUA,0.215
AUUGCCUGGCGCAGAAAGACAAGGAAACGGCAGCCAUUGCUGACUGUGACCACAUCAGGGCCUUGAAUCUUUGUACCUGACAGACCUGGGACCUGGAGUUCGGGCAGAUG,0.34
UACUUGAAACUGUUUAAGUACAAGUUGAACAAAAAUUAUGAAAAGGUAUAUUUGCUUCUCGGGAAAGCAAAGAAGCUGCUUUAAGAAAAUUAAAAGGGGACUAAAAAUUU,0.636
GAAAUGAUUGUUAACAUCACAGGCAUGGCACCGAACACUGUAGAGAUGCACAGUCAGUUGAACUUAGUAGCAACGCUGGCUUUGUGUAAUAAAGGAAGCAUUUGUAACUU,0.537
GCCACACACUGUGGUUAUCUUUUGUUGUGGUUGUUUCUGAGAAAAUGUUCUUGGAUAUGUAAGUGCCAAUACCAGUGUGAAGUAUUGAUCCCGGGCAGCAAAAUACAGCC,0.658
UUGUCUGUCUAUGUUGUGCCUUAGUGCCUGCACUGCCCCUACCCUUCUGCUGCCUGACCUCUGCAUGGUGUCUUGACCUGGGCCUCAUGUGUAGCUGCACUGCCUUUGUC,6.43
AUUCCCCAACCCUUCCUUAUGAGCAUUUUUAGAACAUUGGCUAAGACUAUUUUCCCCCAGUAGCGCUUUUUUCUGGAUUUGCAUUCAGGUGUUAUUCUUAAUGUUUCUGU,2.4
GGGUCAAGAAAAUGAAUGCGCCAAUAACAGUAAGAGCUGUGGAAGACACCCAUACCUGUAUAUACAUGCUCGAGAAAGCUGUAAUGUGAAAAUCAUGUUCUCUAUUUAUG,0.936
AGAACAAGCUUUUUUCACCAAGCUGGUCUCUGGCCAGGGUGCAGGAAAGUCCACUUCAGCCACCAGGAGCAAAGCUGAAAUGGCAUUUGUUUUUCACACCUGGGGUCAGG,0.23
